Experimental data collected from several papers.
Numbers after ± are the reported error.
Genome polyprotein NS3 helicase domain: Genome polyprotein, NS3 helicase domain (Hepatitis C virus genotype 1b, UniProt Q9WMX2)
DRD3: D(3) dopamine receptor (DRD3, Homo sapiens, UniProt P35462)

NCCCCCCCCCCN — inhibition (Genome polyprotein NS3 helicase domain; DNA binding, inhibitor; hepatitis C virus; 100 µM, with: Cy5-dT15 DNA): 2%
CNc1cccc2cc(C(=O)Nc3ccc(C(=O)O)cc3)c(=O)[nH]c12 — inhibition (Protein kinase C beta type, beta-I isoform (PRKCB, Homo sapiens, UniProt P05771); 10 µM): 20%
O=C(CN1CCO[C@H](COc2cccc(Cl)c2)C1)N1CCc2ccccc21 — inhibition (DRD3; radioligand binding; concentration not given, with: [3H]N-methylspiperone): 18.9%
CNc1cc(Oc2cc(C(=O)Nc3cc(N4CCN(C)CC4)cc(C(F)(F)F)c3)ccc2C)ncn1 — inhibition (NEK7 (Homo sapiens, UniProt Q8TDX7); kinase activity; 1 µM): -14.1%
CN(C(=O)n1cnc(-c2ccc[n+]([O-])c2)c1)C1CCCCC1 — inhibition (EDNRA (Homo sapiens, UniProt P25101); 10 µM): 4.57%
O=c1cc([C@@H](CO)NCc2c[nH]c3c(O)nc(O)nc23)o[nH]1 — inhibition (Hypoxanthine-guanine-xanthine phosphoribosyltransferase (Plasmodium falciparum, UniProt P20035); enzyme activity, inhibitor, coupled IMPDH; up to 100 µM): inactive
CCCn1cnc2c1c(=O)n(CCCCC(C)=O)c(=O)n2C — inhibition (Genome polyprotein NS3 helicase domain; DNA binding, inhibitor; hepatitis C virus; 100 µM, with: Cy5-dT15 DNA): 1%
Cn1cc(-n2cnc3c(NCc4nc5cc(Cl)c(Cl)cc5[nH]4)nc(N4CCOCC4)nc32)cn1 — inhibition (Cyclin-dependent kinase 12, with cyclin K (CDK12, Homo sapiens, UniProt Q9NYV4); kinase activity, inhibitor, ADP-Glo; 0.0741 µM): 46.3%
CC(N)(Cc1ccc(O)c(O)c1)C(=O)O (racemic) — inhibition (Genome polyprotein NS3 helicase domain; DNA binding, inhibitor; hepatitis C virus; 100 µM, with: Cy5-dT15 DNA): 0%
O=C1NC(=O)C(c2ccccc2)(c2ccccc2)N1 — inhibition (Glutamate receptor 2 (Homo sapiens, UniProt P42262); ion current, negative allosteric modulator, SyncroPatch patch clamp; HEK293; 10 µM): 9%
CC(NCCc1ccc(O)cc1)C(O)c1ccc(O)cc1 (stereo not shown) — inhibition (Genome polyprotein NS3 helicase domain; DNA binding, inhibitor; hepatitis C virus; 100 µM, with: Cy5-dT15 DNA): 0%
Oc1cc2c(cc1O)C(Cc1ccccc1)NCC2 (stereo not shown) — inhibition (tyrosinase; enzyme activity, inhibitor; 100 µM, with: levodopa): 28.8 ± 2.15%
CC[C@@H]1[C@H](F)C(=O)N[C@@H]1COc1nccc2cc(C(N)=O)c(OC)cc12 — inhibition (EIF2AK4 (Homo sapiens, UniProt Q9P2K8); ATP-site probe binding, ActivX profiling, item: GCN2; THP-1 cell lysate; 0.2 mM, Lys1 site): -14.4%
O=C(NO)c1ccc(CN2CCCCc3ccccc32)c(F)c1 — inhibition (sigma-1 receptor; radioligand binding; 10 µM): 50.4%
Br.CN=c1nc(-c2ccccc2)n(-c2ccccc2)s1 — inhibition (Genome polyprotein NS3 helicase domain; DNA binding, inhibitor; hepatitis C virus; 100 µM, with: Cy5-dT15 DNA): 8%
Cc1cc(-c2ccnc3[nH]cc(F)c23)cc(F)c1[C@@]1(O)[C@H](C)CN(C2CCS(=O)(=O)CC2)C[C@@H]1C — inhibition (CDK11 and CDK8; ATP probe binding, KiNativ, item: Lys2 site; HEK293T cell lysate; 10 µM): 91.1%
O=C(O)C1CCCNC1 (racemic) — inhibition (Genome polyprotein NS3 helicase domain; DNA binding, inhibitor; hepatitis C virus; 100 µM, with: Cy5-dT15 DNA): 0%
COc1cccc(OC[C@@H]2CN(CCN3CCc4ccccc43)CCO2)c1 — inhibition (DRD3; radioligand binding; concentration not given, with: [3H]N-methylspiperone): 48.2%
Cn1c(=O)c2[nH]cnc2n(C)c1=O — inhibition (Voltage-gated potassium channel, KQT; KCNQ2(Kv7.2)/KCNQ3(Kv7.3) (KCNQ3/KCNQ2, Homo sapiens, UniProt O43525+O43526); ion current, antagonist, SyncroPatch patch clamp; HEK293; 3 µM): 0%

Excerpt of the above:
CNc1cccc2cc(C(=O)Nc3ccc(C(=O)O)cc3)c(=O)[nH]c12 — inhibition (Protein kinase C beta type, beta-I isoform (PRKCB, Homo sapiens, UniProt P05771); 10 µM): 20%
O=C(CN1CCO[C@H](COc2cccc(Cl)c2)C1)N1CCc2ccccc21 — inhibition (DRD3; radioligand binding; concentration not given, with: [3H]N-methylspiperone): 18.9%
